Measurements collected from several papers.
Numbered parts are unrelated; each lists some results of a single study. Positions count from the first letter of the parent shown.

Study 1
Target: ABI1, truncated, D143A, DHFR fusion (Arabidopsis thaliana)
Method: DHFR PCA, deep sequencing
Sample: yeast
Notes: methotrexate growth selection, single substitutions
Added: (+)-ABA 0.39 µM
Reference: wild-type fitted maximum
Reading: higher = stronger binding
Starting sequence: PYL1, truncated, DHFR fusion (Arabidopsis thaliana); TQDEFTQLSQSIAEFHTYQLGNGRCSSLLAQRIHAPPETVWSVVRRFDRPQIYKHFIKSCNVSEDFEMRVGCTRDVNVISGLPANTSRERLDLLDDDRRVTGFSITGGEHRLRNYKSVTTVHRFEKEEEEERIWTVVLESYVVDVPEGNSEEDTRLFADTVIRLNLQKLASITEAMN; partner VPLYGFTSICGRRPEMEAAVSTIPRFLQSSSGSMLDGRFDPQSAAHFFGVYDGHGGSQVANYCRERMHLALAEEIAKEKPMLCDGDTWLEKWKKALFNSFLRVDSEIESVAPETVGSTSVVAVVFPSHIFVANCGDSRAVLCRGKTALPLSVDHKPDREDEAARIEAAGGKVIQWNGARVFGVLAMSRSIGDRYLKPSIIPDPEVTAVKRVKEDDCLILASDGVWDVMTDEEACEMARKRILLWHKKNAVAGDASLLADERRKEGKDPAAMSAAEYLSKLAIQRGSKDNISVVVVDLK
Change | relative binding score
E14D | 25.4%
E109S | 22.6%
L91W | -18.5%
E152L | 5.56%
S9D | 33.4%
V43W | -3.8%
E127N | 52.7%
D92S | -3.41%
T160Y | 27%
L28Q | 3.87%
R113P | 63.3%
P50S | -10.7%
T106C | 24.2%
I172M | 1.6%
D159F | -20.5%
V142F | -2.27%
V136G | -3.85%
Y53W | 52.3%
A175F | -0.117%
E127K | 62.4%
K168I | -16%
Y18H | 51.6%
L8A | 6.21%

Study 2
Target: Sal-like protein 4, full length isoform B (SALL4, Homo sapiens, UniProt Q9UJQ4-2, residues 1-616)
Method: universal PBM
Form: double-stranded DNA, one strand shown
Sample: in vitro
Tested at: not given
Notes: 8-mer, flanks averaged, mean of replicates
Reading: higher = stronger binding
Residues (chain): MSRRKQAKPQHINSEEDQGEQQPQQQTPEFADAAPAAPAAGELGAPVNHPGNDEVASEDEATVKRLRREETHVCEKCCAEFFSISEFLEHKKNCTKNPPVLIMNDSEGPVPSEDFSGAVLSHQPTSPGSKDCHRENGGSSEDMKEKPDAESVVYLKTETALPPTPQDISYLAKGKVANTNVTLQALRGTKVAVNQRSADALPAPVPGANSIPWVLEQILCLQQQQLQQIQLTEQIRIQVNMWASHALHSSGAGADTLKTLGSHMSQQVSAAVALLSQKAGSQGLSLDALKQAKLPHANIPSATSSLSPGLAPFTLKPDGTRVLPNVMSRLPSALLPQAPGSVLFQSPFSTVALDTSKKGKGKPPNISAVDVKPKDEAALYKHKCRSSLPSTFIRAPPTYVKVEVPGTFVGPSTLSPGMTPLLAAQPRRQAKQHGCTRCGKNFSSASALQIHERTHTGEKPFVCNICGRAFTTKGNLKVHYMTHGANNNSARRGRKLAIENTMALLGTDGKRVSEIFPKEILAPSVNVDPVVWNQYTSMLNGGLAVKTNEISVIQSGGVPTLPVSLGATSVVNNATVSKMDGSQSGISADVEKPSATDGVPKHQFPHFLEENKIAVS
Sequence | E-score
ATGATAAG | 0.26
AGATCAGG | -0.1
AACCAGGA | -0.0854
TGCTACAA | 0.189
CTTCGTGA | -0.146
CGACGCCG | -0.325
ACACCCCG | -0.307
GAGGGAAC | -0.312
CCGAACGA | -0.155
CTGAAGGA | -0.157
AACGAAAC | 0.094
AATCGAGT | -0.0169
CGCGTTTC | -0.254
AAAACGGA | -0.0265
CCCGAGGG | -0.286
ATTTTTTC | 0.368
TAAGAGAA | 0.215
CGCTCACG | -0.247
GAAAGTCC | -0.167
GGTTTTGA | 0.0238
TCCGGCCA | -0.184
GTGAGCCA | -0.00706
ATGAGCTG | -0.0171
CCCGGATA | -0.112
ACCCAAGT | 0.026

Study 3
Target: Histone acetyltransferase KAT6A, both winged helices, GST fusion (KAT6A, Homo sapiens, UniProt Q92794, residues 1-181)
Method: protein binding microarray
Form: double-stranded DNA, one strand shown
Sample: in vitro
Tested at: not given
Notes: 8-mer, flanks averaged, mean of 2 arrays, mostly near background
Reference: not given
Reading: higher = stronger binding
Construct (chain): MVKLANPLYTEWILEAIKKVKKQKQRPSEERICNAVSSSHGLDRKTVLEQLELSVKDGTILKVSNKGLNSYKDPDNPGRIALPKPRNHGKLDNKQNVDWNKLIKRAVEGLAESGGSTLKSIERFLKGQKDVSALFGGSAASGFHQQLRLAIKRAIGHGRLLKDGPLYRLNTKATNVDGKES
Sequence | E-score
TGAGGACA | -0.256
GACTGTCC | 0.0373
AGTCAAAG | -0.144
CTGTCAAC | -0.0887
CATTGTAG | -0.151
GGGGGTAA | -0.128
TACCGAAA | -0.00992
ACCGAGAA | 0.104
ATAACTGC | -0.0806
GGCTCTTA | -0.0767
CATTAATG | -0.0802
CAAAGGTC | -0.101
GATCCTAC | -0.0872
ACAGTACC | -0.0478
GGCAACAC | -0.00358
CCGAGGTA | -0.0756
GCGTTTCA | 0.219
AAACGGTC | 0.192
AGTAGCGC | 0.29
CGAAAGTA | -0.0751
AAAACGAT | -0.156
ACCTTCGT | -0.0623
TCAGCAAA | -0.0187
ACCTGAGT | -0.0779

Study 4
Target: Interferon regulatory factor 7, full length, phosphomimetic (IRF7, Homo sapiens, UniProt Q92985, residues 1-503, S101K/S471D/S472D/S475D/S476D/S477D/S483D/S484D/S487D)
Method: protein-binding microarray
Form: double-stranded DNA, one strand shown
Sample: in vitro
Tested at: 250 nM
Notes: 60-bp whole probe
Added: salmon DNA 0.4 mg/ml
Reference: random background probes
Reading: higher = stronger binding
Shared flanks, not repeated: GCCTAGCAC … GTCTTGATTCGCTTGACGCTGCTG
Construct (chain): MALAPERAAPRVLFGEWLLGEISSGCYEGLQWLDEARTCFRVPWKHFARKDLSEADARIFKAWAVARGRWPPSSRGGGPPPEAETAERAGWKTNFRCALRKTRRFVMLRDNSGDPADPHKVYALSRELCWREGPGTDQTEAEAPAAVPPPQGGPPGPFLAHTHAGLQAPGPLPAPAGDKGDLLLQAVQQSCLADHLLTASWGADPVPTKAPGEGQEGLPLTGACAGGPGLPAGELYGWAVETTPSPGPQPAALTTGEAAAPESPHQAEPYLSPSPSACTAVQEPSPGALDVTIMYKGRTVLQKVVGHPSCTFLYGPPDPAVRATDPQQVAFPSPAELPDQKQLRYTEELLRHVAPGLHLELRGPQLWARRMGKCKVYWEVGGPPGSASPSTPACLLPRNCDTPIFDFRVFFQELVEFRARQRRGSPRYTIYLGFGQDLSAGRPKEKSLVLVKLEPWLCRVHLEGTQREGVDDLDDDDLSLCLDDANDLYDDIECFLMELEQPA
Sequence | log fluorescence [z-score]
TTAGGTATCGACTATAGGTTAGTGCTA | 0.00379
CTGTTTTTGCTTTCCTTTATGTGCTAG | 3.08
CACGAACTGGGGACTGGAGACGTGCTA | -0.324
TCACCTTGATGTCTGGGACTGTGCTAG | -0.544
TCAGGTGTCTTTTGTGGAACTGTGCTA | -0.6
TGACCTGCTCCAAACACCTCGTGCTAG | 0.121
TTAGGACTGGACTTTAGGTTAGTGCTA | -0.581
TTAGGTATCGCGTTTCGGTTAGTGCTA | 3.06
TTAGAGATCGGGACTGGATTAGTGCTA | -0.0865
TCCTATATCTGAACCGCAGAGTGCTAG | 0.564
CAATATTTGCAACATCCCAATGTGCTA | 0.24
TTAGGACTACTTATCCTTTAGTGCTAG | 0.517
CACGGTATCGGACTGGGGACGTGCTAG | 0.214
CATTTTAGTAGTTTCTAAAAGTGCTAG | 2.43
TTAGGTATCGACTTTCGCTTAGTGCTA | 2.07
GTAGGTATCGGTATCGGTTAGTGCTAG | 2.18
TTAGGTTTCGACTTTCGGTTAGTGCTA | 11.6
GACGGTATCGGGTTTCGGGAAGTGCTA | 2.75
TTAGGACTGGACTTTCGTTTAGTGCTA | 0.995

Study 5
Target: PABPC1L2, full length, GST fusion (mouse, UniProt A0ABA7IW68)
Method: RNAcompete
Form: RNA
Sample: in vitro
Tested at: 20 nM
Notes: 7-mer, probes averaged, single round
Reference: mean of 7-mers
Reading: higher = stronger binding
Construct (chain): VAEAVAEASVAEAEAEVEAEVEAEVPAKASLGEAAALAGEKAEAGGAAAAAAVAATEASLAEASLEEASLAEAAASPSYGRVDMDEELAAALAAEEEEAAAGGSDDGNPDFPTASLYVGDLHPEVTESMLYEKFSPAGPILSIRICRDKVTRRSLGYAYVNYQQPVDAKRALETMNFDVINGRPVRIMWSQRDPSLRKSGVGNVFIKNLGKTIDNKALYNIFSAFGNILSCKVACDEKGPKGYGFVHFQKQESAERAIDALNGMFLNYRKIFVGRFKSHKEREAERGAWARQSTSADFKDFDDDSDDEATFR
Sequence | 7-mer Z-score
CCGCAUU | -0.298
AGAAGCU | -0.132
UAUGAAG | 0.00798
GGCCUAC | -0.0428
UGAUUCU | -0.228
CCUUCCU | -0.449
UAAGACU | -0.0428
UCUUUCU | -0.498
CCGCGGU | -0.302
CUAGAUG | -0.0917
AACAUUA | 0.668
AGAUACG | -0.224
UAACUCU | -0.296
CCUAGCG | -0.287
CCCGCAA | -0.15
UAACGCC | -0.3
GACCUAA | -0.0971
AUGACCC | -0.173
ACACCUA | -0.112

Study 6
Target: CCND1, cyclin fold, Cln2 fusion (human)
Method: yeast growth competition, sequencing
Sample: yeast
Notes: weak parent motif
Reference: not given
Reading: higher = stronger binding
Starting sequence: BRCA2 docking peptide (human); PSIKRNLLNEFDR; partner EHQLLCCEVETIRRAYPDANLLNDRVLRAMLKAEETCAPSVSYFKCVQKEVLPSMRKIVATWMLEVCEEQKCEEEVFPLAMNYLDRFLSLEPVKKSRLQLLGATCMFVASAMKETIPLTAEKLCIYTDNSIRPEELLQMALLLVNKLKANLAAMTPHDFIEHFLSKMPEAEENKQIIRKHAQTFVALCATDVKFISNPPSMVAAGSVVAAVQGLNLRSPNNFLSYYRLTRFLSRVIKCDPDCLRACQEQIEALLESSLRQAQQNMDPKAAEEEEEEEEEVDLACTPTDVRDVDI
Change | normalised enrichment score
HSIKRNLLNEFDR [P1H] | 0.831
PSIKRNLLNEFDV [R13V] | 0.281
PSIKRNLLCEFDR [N9C] | 0.142
PSDKRNLLNEFDR [I3D] | -0.642
PSIKRNLVNEFDR [L8V] | 0.579
PSIKRNLLNPFDR [E10P] | 0.338
PSQKRNLLNEFDR [I3Q] | -0.54
PSVKRNLLNEFDR [I3V] | 0.0198
PSIKRNLLGEFDR [N9G] | 0.413
PSIKRNLLNEFIR [D12I] | -0.621
PWIKRNLLNEFDR [S2W] | 0.0859
PSIKRNLLNFFDR [E10F] | 1.06
PLIKRNLLNEFDR [S2L] | 0.67
PSIKRNLDNEFDR [L8D] | 0.269
PSIKNNLLNEFDR [R5N] | 0.209

A few entries again (study 4):
Sequence | log fluorescence [z-score]
CACGAACTGGGGACTGGAGACGTGCTA | -0.324
TCACCTTGATGTCTGGGACTGTGCTAG | -0.544
TCAGGTGTCTTTTGTGGAACTGTGCTA | -0.6
TGACCTGCTCCAAACACCTCGTGCTAG | 0.121
TTAGGACTGGACTTTAGGTTAGTGCTA | -0.581
TTAGGTATCGCGTTTCGGTTAGTGCTA | 3.06
TTAGAGATCGGGACTGGATTAGTGCTA | -0.0865
TCCTATATCTGAACCGCAGAGTGCTAG | 0.564
CAATATTTGCAACATCCCAATGTGCTA | 0.24
TTAGGACTACTTATCCTTTAGTGCTAG | 0.517
CACGGTATCGGACTGGGGACGTGCTAG | 0.214
CATTTTAGTAGTTTCTAAAAGTGCTAG | 2.43
